Results pooled from the literature.
Protocols differ between the studies behind these lines. Several values in a cell are separate wells, animals, samples, runs or records. Numbers after ± are the reported error.
pyrD: Dihydroorotate dehydrogenase (quinone) (pyrD, Acinetobacter baumannii, UniProt B7GZW7)
CDC28: Cyclin-dependent kinase 1 (CDC28, Candida albicans, UniProt P43063)
MAOB: Amine oxidase [flavin-containing] B (MAOB, Homo sapiens, UniProt P27338)
Kir3.1/Kir3.4: Kir3.1/Kir3.4 (Homo sapiens, UniProt P48544+P48549)
AKR1B1: Aldo-keto reductase family 1 member B1 (AKR1B1, Homo sapiens, UniProt P15121)
SLC6A6 Y138A: Sodium- and chloride-dependent taurine transporter (SLC6A6, Homo sapiens, UniProt P31641, Y138A)
T1: RNA aptamer; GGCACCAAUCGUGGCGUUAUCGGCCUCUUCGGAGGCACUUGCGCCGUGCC

The inhibition of `O=C(NO)c1ccc(CN2CCCCc3ccccc32)c(F)c1` is reported as 21.9% (HRH3 (Homo sapiens, UniProt Q9Y5N1); radioligand binding, radioligand displacement; 10 µM, mean of replicates).
For `CN(CCO)c1ccc(/C=C(\C#N)c2ccc(C#N)cc2)cc1`, the Kd was 1.34 µM (T1, RNA aptamer; fluorescence titration, Hill fit; apparent).
For `C=CC(=O)N1CCC(C(=O)NCC(=O)N2CCN(c3nc(-c4cnc(N)nc4C(F)F)nc(N4CCOCC4)n3)CC2)CC1`, the remaining binding was 85% (PIP5K1C (Homo sapiens, UniProt O60331); KINOMEscan; 1 µM).
For `O=[N+]([O-])c1cc(C(F)(F)F)ccc1NCc1ccco1`, the koff was 2.82 ± 0.16 s⁻¹ (Endothelial PAS domain-containing protein 1, PAS-B domain (EPAS1, Homo sapiens, UniProt Q99814); ZZ-exchange NMR; 25 °C).
`Nc1ncnc2c1ncn2[C@@H]1O[C@H](COP(=O)(O)CP(=O)(O)OP(=O)(O)O)[C@@H](O)[C@H]1O` has a calcium influx of 94.3% and 83.7% and 88.7% (P2X purinoceptor 1 (P2RX1, Homo sapiens, UniProt P51575, R139A); calcium influx; 1 µM; relative to: ionomycin response).
The reaction velocity of `Nc1nc2c(ncn2[C@@H]2O[C@H](COP(=O)(O)O)[C@@H](O)[C@H]2O)c(=O)[nH]1` is reported as 0.0827 µM/s and 0.0909 µM/s and 0.093 µM/s (GUK1 (Homo sapiens, UniProt Q16774); enzyme activity, NADH-coupled; 2000 µM, with: NaCl 150 mM).
The Km of `Nc1ccn([C@H]2C[C@H](O)[C@@H](COP(=O)(O)OP(=O)(O)OP(=O)(O)O)O2)c(=O)n1` is reported as 0.14 µM (DNA polymerase beta (POLB, Homo sapiens, UniProt P06746); nucleotide incorporation, substrate, steady-state kinetics; with: undamaged primer-template).
For `CCCCC[C@H](O)/C=C/[C@H]1C(=O)C[C@H](O)[C@@H]1C/C=C\CCCC(=O)O`, the activation was 89.2% (PTGDR (Homo sapiens, UniProt Q13258, D72N); agonist; 0.1562 µM).
For `Cn1c[n+]([C@@H]2O[C@H](COP(=O)(O)OP(=O)([O-])OP(=O)(O)OC[C@H]3O[C@@H](n4cnc5c(=O)[nH]c(N)nc54)[C@H](O)[C@@H]3O)[C@@H](O)[C@H]2O)c2nc(N)[nH]c(=O)c21`, the hydrolysis was 95.1 ± 3% (DCPS (Homo sapiens, UniProt Q96C86); substrate, HPLC; concentration not given, 30 min).
`CCc1cnn2c(NCc3ccc[n+]([O-])c3)cc(N3CCCC[C@H]3CCO)nc12`: “chemical shift change” -0.219 ppm (BRD4 (Homo sapiens, UniProt O60885); 19F NMR, item: tyrosine 97; 186 µM; relative to: free protein).
`Cc1cc(Nc2ccc3c(c2)CCCC3)n2ccnc2n1` has a robust Z-score of 24.7 (pyrD; enzyme activity, inhibitor, colorimetric HTS, item: DCIP reduction; 3 µM; direction not given).
`CN(C)C(=O)C(CCN1CCC(O)(c2ccc(Cl)cc2)CC1)(c1ccccc1)c1ccccc1` — result for “effective gating valence”: 1.19 ± 0.15 elementary charges (Calcium-activated potassium channel subunit alpha-1, with LRRC26 γ1 subunit (KCNMA1, Homo sapiens, UniProt Q12791); BK current, inside-out patch clamp; excised membrane patch; 0.3 µM, γ1 coexpressed, individual fits, with: nominally 0 Ca2+ cytosolic).
For `O=c1nc(SCc2cc(F)cc(C(F)(F)F)c2)nc(SCc2ccc3nc(Cl)ccc3c2)[nH]1`, “ATP hydrolysis rate” read 0.301 µM/min and 0.851 µM/min (TOP2A (Homo sapiens, UniProt P11388); ATPase activity; 125 µM, with: ATP 0.1 mM).
`Cc1ccc(C(C)C)cc1O` has a Hill coefficient of 1 ± 0.3 (uncharacterized protein (Solanum tuberosum, UniProt M0ZZL3); enzyme activity; inhibitory mode parameter).
The ΔTm of `COc1cc(-c2cc(C(C)=O)n3ccccc23)c(OC)cc1Cn1ccnc1` is reported as 5.5 °C (CREBBP (Homo sapiens, UniProt Q92793)).
`O=C(COP(=O)(O)O)[C@@H](O)[C@H](O)[C@H](O)COP(=O)(O)O`: “thermal stability ratio” 0.471 and 0.455 and 0.591 (HDAC2 (Homo sapiens, UniProt Q92769); thermal proteome profiling; HepG2 cell lysate; concentration not given, 57 over 37 °C; relative to: compound over control).
With `C=CC(=O)N1CCC[C@@H](n2nc(-c3ccc(Oc4ccccc4)cc3)c3c(N)ncnc32)C1` the remaining activity was 82.3% (DYRK2 (Homo sapiens, UniProt Q92630); 1 µM).
With `Cc1cc(Nc2ccc(S(F)(F)(F)(F)F)cc2)n2nc(C(C)(F)F)nc2n1` the robust Z-score was 22.2 (pyrD; enzyme activity, inhibitor, colorimetric HTS, item: DCIP reduction; 3 µM; direction not given).
For `C=CC(=O)N1CCN(c2nc(OC[C@@H]3CCCN3C)nc3c(F)c(-c4nc(N)cc(C)c4C(F)(F)F)c(Cl)cc23)[C@@H](C)C1`, the kinact/KI was 1.1e+06 M⁻¹ s⁻¹ (GTPase KRas, GDP-bound (KRAS, Homo sapiens, UniProt P01116, C118S/G12C); covalent inhibitor).
`CCc1nc2nc(C)cc(Nc3ccc(S(F)(F)(F)(F)F)cc3)n2n1` has a robust Z-score of 25.3 (pyrD; enzyme activity, inhibitor, colorimetric HTS, item: DCIP reduction; 3 µM; direction not given).
The Km of `CC(C)C[C@H](N)C(=O)Nc1ccc2ccccc2c1` is reported as 1 µM (rat aminopeptidase III; substrate).
For `c1ccc(-c2n[nH]cc2-c2ccnc3ccccc23)nc1`, “log2 fold change” read 1.44 (CDC28; kinase binding, competitor, MIB/MS competition, item: CDC28; Candida albicans cell lysate; 1 µM; relative to: DMSO).
With `Cl.Cl.NNCCc1ccc(NC(=O)CCCc2ccccc2)cc1` the kinact was 0.26 ± 0.14 min⁻¹ (MAOB; peroxidase-coupled; with: tyramine).
The remaining activity of `Cc1cc(Nc2cc(N3CCN(C)CC3)nc(Sc3ccc(NC(=O)C4CC4)cc3)n2)[nH]n1` is reported as 86% (SRC (Homo sapiens, UniProt P12931); kinase activity, KinaseProfiler; 0.03 µM, species human; relative to: control).
For `COc1cc(F)cc2c(N3CCN4c5ccccc5OC[C@H]4C3)c(C#N)nnc12`, the maximal response was 84% (Grm7 (Rattus norvegicus, UniProt P35400); positive allosteric modulator; cell-based; with: L-AP4 EC20; relative to: L-AP4 maximum).
The Emax of `O=C(COc1ccc(C(F)(F)F)cc1C(F)(F)F)Nc1cc(C2CC2)nn1C1CCC(F)(F)CC1` is reported as 36% (Kir3.1/Kir3.4; thallium flux, activator; HEK293; relative to: standard compound).
The inhibition of `CC1=NN(c2ccc(F)cc2)C(=O)C1=NNc1ccc(S(N)(=O)=O)cc1` is reported as 32.3 ± 0.00178% (bovine α-glucosidase; enzyme activity, inhibitor, glucose oxidase; 10 µg/mL, with: maltose).
`CC1(C)CC[C@]2(C(=O)O)CC[C@]3(C)C(=CC[C@@H]4[C@@]5(C)C[C@@H](O)[C@H](OC(=O)/C=C/c6ccc(O)cc6)C(C)(C)[C@@H]5CC[C@]43C)[C@@H]2C1` (relative stereo) — result for photoaffinity labelling: “increased” (Presenilin-1, N-terminal fragment (PSEN1, Homo sapiens, UniProt P49768); S2 subsite probe binding, competitor, item: PS1 labelling; HeLa membranes).
`Nc1ncnc2c1ncn2[C@@H]1O[C@H](CSCC[C@H](N)C(=O)O)[C@@H](O)[C@H]1O` has a Km of 400 ± 100 µM (dadD (Methanocaldococcus jannaschii, UniProt Q58936); substrate).
`O=C(COc1cc(Cl)ccc1Cl)NCc1cccs1`: activity “inactive” (Kir3.1/Kir3.4; activator, thallium flux; HEK293; concentration not given).
`NC/C(=C\F)COc1cccc(Cn2c(=S)[nH]c(=O)c3[nH]cnc32)c1` has an inhibition of 38.7% and 28.4% (CACNA1C (Homo sapiens, UniProt Q13936); peak ion current, inhibitor, automated patch clamp; 100 µM, pulse 1, single recording).
For `CC(=O)N[C@H]1C(OCCOP(=O)(O)OC[C@H]2O[C@@H](n3ccc(=O)[nH]c3=O)[C@H](O)[C@@H]2O)O[C@H](CO)[C@@H](O)[C@@H]1O` (some centres unmarked), the relative activity was 1.44 (MGAT3 (Homo sapiens, UniProt Q09327); enzyme activity, activator, HPLC; 2500 µM, with: UDP-GlcNAc 0.5 mM; relative to: no compound).
`COc1cc(/C=C2\SC(=O)N(CC(=O)c3ccc([N+](=O)[O-])cc3)C2=O)cc(OC)c1OC` gave a log IC50 of 2.86 log nM (AKR1B1; enzyme activity, inhibitor).
For `NCCCCC(=O)O`, “normalised MST signal” read 0.00782 (SLC6A6 Y138A; binding, microscale thermophoresis; 500 µM, room temperature, with: 50 nM labelled protein; higher = more binding).
`Oc1ccccc1-c1n[nH]cc1-c1ccnc2ccccc12`: “log2 fold change” 0.14 (CDC28; kinase binding, MIB/MS competition; Candida albicans lysate; 10 µM; relative to: DMSO, negative = stronger binding).
The robust Z-score of `CNc1cc(Nc2ccc(C(F)(F)F)cc2)n2ncnc2n1` is reported as 20.9 (pyrD; enzyme activity, inhibitor, colorimetric HTS, item: DCIP reduction; 3 µM; direction not given).
`CC(=O)SCCNC(=O)CCNC(=O)[C@H](O)C(C)(C)COP(=O)(O)OP(=O)(O)OC[C@H]1O[C@@H](n2cnc3c(N)ncnc32)[C@H](O)[C@@H]1OP(=O)(O)O` gave a Ki of 164 µM (Carnitine O-acetyltransferase (CRAT, Columba livia, UniProt P52826); stopped-flow global fit; pH 7.8, ambient, ordered bi-bi mechanism).
`Cc1ccc(/C=C2\SC(=O)N(Cc3nc4ccccc4s3)C2=O)cc1` has a Hill slope of -0.562 (AKR1B1; enzyme activity, inhibitor).
The koff of `C[C@]12C[C@H](O)[C@H]3[C@@H](CCC4=CC(=O)CC[C@@]43C)[C@@H]1CC[C@@H]2C(=O)CO` is reported as 19 ± 5 s⁻¹ (CYP11B1 (Homo sapiens, UniProt P15538); nanodiscs; 25 °C, fast phase).
Under “normalised MST signal”, `O=S(=O)(O)C1CCNCC1` is recorded as -0.0105 (SLC6A6 Y138A; binding, microscale thermophoresis; 7.81 µM, room temperature, with: 50 nM labelled protein; higher = more binding).
For `O=C(COc1cc(Cl)ccc1Cl)Nc1cc(C2CCC2)nn1C1CCOCC1`, the Emax was 18% (Kir3.1/Kir3.4; thallium flux, activator; HEK293; relative to: standard compound).
For `C1=C/COCc2cc(ccc2OCCN2CCCC2)Nc2nccc(n2)-c2cccc(c2)COC/1`, “percent of control” read 95% (PKMYT1 (Homo sapiens, UniProt Q99640); concentration not given).
`O=C(Nc1ccccc1)c1ccc2c(c1)C(=O)NC2=O` gave a potency ratio of 41 fold (MAOB; enzyme activity, inhibitor; relative to: phthalimide IC50 over cpd IC50).
`C=CC(=O)N1CCC(COCC(=O)N2CCN(c3nc(-c4cnc(N)nc4C(F)F)nc(N4CCOC[C@@H]4C)n3)CC2)CC1` gave a remaining binding of 99% (ACVR1 (Homo sapiens, UniProt Q04771); KINOMEscan; 1 µM).
With `CN1CCN(c2cc(-c3ccncc3)c(-c3ccc4ccccc4c3)nn2)CC1` the activation was -0.5% (PTGER3 (Homo sapiens, UniProt P43115); agonist, FLIPR; 12.5 µM).
For `CCN1CCC[C@H]1CNC(=O)c1c(O)c(Cl)cc(Cl)c1OC`, “log2 fold change” read 0.211 (NPBWR2 (Homo sapiens, UniProt P48146); receptor activation, TANGO luminescence; concentration not given, unconfirmed screen; relative to: vehicle control).
`COc1cc(Nc2ncc3c(n2)-c2ccc(Cl)cc2C(c2c(F)cccc2OC)=NC3)ccc1C(=O)O` gave a remaining activity of 62% (CaMKI delta (CAMK1D); enzyme activity; 1 µM).

A few entries again:
`NC/C(=C\F)COc1cccc(Cn2c(=S)[nH]c(=O)c3[nH]cnc32)c1` has an inhibition of 38.7% and 28.4% (CACNA1C (Homo sapiens, UniProt Q13936); peak ion current, inhibitor, automated patch clamp; 100 µM, pulse 1, single recording).
`O=C(COc1cc(Cl)ccc1Cl)NCc1cccs1`: activity “inactive” (Kir3.1/Kir3.4; activator, thallium flux; HEK293; concentration not given).
For `COc1cc(F)cc2c(N3CCN4c5ccccc5OC[C@H]4C3)c(C#N)nnc12`, the maximal response was 84% (Grm7 (Rattus norvegicus, UniProt P35400); positive allosteric modulator; cell-based; with: L-AP4 EC20; relative to: L-AP4 maximum).
`COc1cc(/C=C2\SC(=O)N(CC(=O)c3ccc([N+](=O)[O-])cc3)C2=O)cc(OC)c1OC` gave a log IC50 of 2.86 log nM (AKR1B1; enzyme activity, inhibitor).
For `CC(=O)N[C@H]1C(OCCOP(=O)(O)OC[C@H]2O[C@@H](n3ccc(=O)[nH]c3=O)[C@H](O)[C@@H]2O)O[C@H](CO)[C@@H](O)[C@@H]1O` (some centres unmarked), the relative activity was 1.44 (MGAT3 (Homo sapiens, UniProt Q09327); enzyme activity, activator, HPLC; 2500 µM, with: UDP-GlcNAc 0.5 mM; relative to: no compound).
`Oc1ccccc1-c1n[nH]cc1-c1ccnc2ccccc12`: “log2 fold change” 0.14 (CDC28; kinase binding, MIB/MS competition; Candida albicans lysate; 10 µM; relative to: DMSO, negative = stronger binding).
